# Assay results collected from several papers.
# Each line is one published result; not all experiments were run side by side. “And” joins repeats or separate records; there may be more than shown. Numbers after ± are the reported error.
Compound,test,system,conditions,how to read,measurement,result
CC1(C)OC[C@@H](c2ccc3ccccc3c2)N[C@@H]1c1ccccc1,"shake-flask, 1-octanol/buffer",,pH 7.4,,logD,> 4.7
CCc1cc(C(=O)NC)c2nccc(N3CCc4c(cc(Cn5ccnc5)cc4-c4cn(C)nc4C(F)(F)F)C3=O)c2c1,,Sprague Dawley rats,"oral, 100 mg/kg twice daily, 7 days",,reticulocytes,3.53 ± 0.57%
C[C@@H](Oc1ccc(S(C)(=O)=O)cc1C(=O)N1C[C@@H]2C[C@]2(c2cc(C(F)(F)F)on2)C1)C(F)(F)F,,healthy young humans,"oral, 75 mg single dose, geometric mean",,%AUC extrapolated,28.2%
O=C(Cc1ccc(-c2cccs2)cc1)Nc1cc(C2CC2)[nH]n1,,octanol/buffer,"67 µM, pH 7.4",,logD,4.31
C=CC(=O)Nc1cc(Nc2nccc(-c3cn(C)c4ccccc34)n2)c(OC)cc1N(C)CCN(C)C,UHPLC-MS/MS,"human, dried blood spot finger-prick","oral, 80 mg once daily",,trough concentration,208 ng/mL and 276 ng/mL and 269 ng/mL and 205 ng/mL and 254 ng/mL and 196 ng/mL and 222 ng/mL and 200 ng/mL
Cc1cc(Nc2cc3ncccc3c(N[C@@H]3C[C@H]4CC[C@@H](C3)N4CCC#N)n2)n[nH]1,,healthy human subjects,"oral, 300 mg, 14 days, multiple ascending dose",,skin subcutaneous disorders incidence,17%
CCCCCN1C[C@H](O)[C@@H](O)[C@H](O)[C@@H]1CO,LC-MS/MS,"Hexb-/- mice, male, brain",300 mg/kg/day,,geometric mean brain concentration,277 ng/g
COc1cc(Nc2ncc3c(n2)-c2ccc(Cl)cc2C(c2c(F)cccc2OC)=NC3)ccc1C(=O)O,"refers to: Fatigue, all grades","cancer patients, phase 1/2","oral, dose not given, together with: pembrolizumab",,patients with adverse event,58%
C[C@@H](NC(=O)N1C(=O)[C@H](Cc2ccnc(N)c2)[C@H]1C(=O)O)C1CCCCC1,UPLC-MS/MS,"healthy adult Chinese volunteers, plasma","continuous intravenous infusion, 2.25 mg/kg/h, day 6 of 5-day infusion, mean",,CL,4.3 mL/min/kg
C=CCn1c(=O)c2cnc(Nc3ccc(N4CCN(C)CC4)cc3)nc2n1-c1ccc2c(n1)[C@@](O)(CC)CC2,,"female NOD/SCID mouse OVCAR-3 xenograft, plasma","oral, 90 mg/kg once daily, :3",,AUC(0-24),36900 ng·h/mL
C=CC(=O)NC1CCN(c2ncc3ncnc(Nc4ccc(Oc5ccc6c(c5)ncn6C)c(C)c4)c3n2)CC1,,healthy male humans,"oral, 240 mg",,participants with serious AE,0%
CCn1ncc2c1-c1cnc(N)c(c1)O[C@H](C)c1cc(F)ccc1-c1nn(C)nc1C2,,"female athymic nude mice, sample B PDX","oral, 15 mg/kg twice daily for 5.5 days, 12 h",,unbound plasma trough concentration,100 ± 34 nM
O=C(O)CCC(=O)O.[2H]C([2H])([2H])Oc1cc(C)c2[nH]ccc2c1CN1CC[C@@H](C2CC2)C[C@H]1c1ccc(C(=O)O)cc1,multiple ascending dose,healthy Chinese subjects,100 mg twice daily,,subjects with elevated triglycerides TEAE,12.5%
O=C1CC[C@H](N2Cc3cc(N4CCN(CC5CCN(c6ccc([C@@H]7c8ccc(O)cc8CC[C@@H]7c7ccccc7)cc6)CC5)CC4)ccc3C2=O)C(=O)N1,refers to: Myalgia,human,"oral, 200 mg, together with: dabigatran etexilate 75 mg",,participants with adverse event,0%
Cn1cc(-c2cn3nccc3c(-c3cnn([C@]4(CC#N)C[C@@H](C#N)C4)c3)n2)cn1,,"healthy humans fed, plasma","oral, 1200 mg once daily, day 10, geometric mean",,peak to trough ratio,29.8
CN(CCC#N)C1CCN(C(=O)Cn2cc(NC(=O)c3cnn4cccnc34)c(-c3cc(Cl)ccc3OC(F)F)n2)CC1,,human,"15 mg twice daily, day 42",baseline: baseline,LDL cholesterol change,-3.9 mg/dL
COc1ccc2c(c1)CN(C(=O)CCN1CCC(Cc3ccccc3)CC1)CC[S@@+]2[O-],telemetry,conscious male beagle dogs,"intravenous, NG, 24 h",,PQ interval,88 ± 9 ms
CCN1/C(=C/C(C)=O)Sc2ccc(F)cc21,,cynomolgus monkey,"oral, 30 mg/kg, 4 h post-dose",baseline: pre-dose,QTc interval change,100 ± 3.5%
CC(C)Nc1ccnc(Nc2ccccc2-c2ccccc2)n1,,MDCKII-WT cells,"10 µM, pH 7.4",baseline: Papp B-A over A-B,efflux ratio,0.7
NC1(C(=O)N[C@@H](CCO)c2ccc(Cl)cc2)CCN(c2nc[nH]c3nccc2-3)CC1,,metastatic CRPC patients,"320 mg b.i.d., any grade, treatment-related, together with: enzalutamide 160 mg daily",,incidence of Dysgeusia,0%
COc1ccc2c(=O)n(C)c(-c3ccccc3)nc2c1,,"Sprague-Dawley rat, male, abdominal fat","oral, 30 mg/kg, 0.5 h",baseline: abdominal fat over plasma,tissue/plasma ratio,30.1
CN(C(=O)n1cnc(-c2cccnc2)c1)C1CCCCC1,,"Wistar rat, cerebral cortex","oral, 10 mg/kg/day of BIA 10-2474, 72 h, repeated 5 days",,concentration,8.9 ± 0.2 ng/g
O=C(COc1ccc(Cl)cc1)NC12CC(c3nnc([C@H]4C[C@@H](OC(F)(F)F)C4)o3)(C1)C2,,"humans, MAD","oral, dose not given, 14 days, all compound doses",,procedural pain,35.3%
CO[C@@H]1[C@H](OC(=O)N2CC(CCN3CCOCC3)C2)CC[C@]2(CO2)[C@H]1[C@@]1(C)O[C@@H]1CC=C(C)C,,humans,"subcutaneous, 0.2 mg twice weekly for 4 weeks, day 28",baseline: baseline,diastolic blood pressure,-3.4 ± 6.4 mmHg
CNc1cc[n+](CCNC(=O)c2ccn3c(-c4c(C)noc4C)cnc3c2)cc1.[Cl-],,aqueous buffer,"initial, pH 7",,largest degradation product,not detected
CC(C)C[C@H](NC(=O)[C@H]1O[C@@H]1C(=O)O)C(=O)NCCCCN=C(N)N,,PBS,"100 µM, 23 h, pH 8, 37 °C, together with: cysteine 10 mM",,cysteine adduct formation,79%
Cc1ccc([C@H]2N[C@@H](C3CCCCC3)CO[C@@H]2C)cc1,"shake-flask, 1-octanol/buffer",,pH 7.4,,logD,> 4.7
Cc1ccc(C)c(OCCCC(C)(C)C(=O)O)c1,HPLC C18 retention,,pH 7.4,baseline: calibration standards,chromatographic hydrophobicity index,73.7
O=C(N/N=C/c1ccccc1O)c1ccncc1,,ADS buffer,"115 µM, 7 days, -80 °C, long-term storage",,stability,99%
CNS(=O)(=O)Cc1ccc2[nH]cc(CCN(C)C)c2c1,,octanol/buffer,"67 µM, pH 11",,logD,0.88
COc1ncc(-c2nc3c(n2C(C)C)[C@H](c2ccc(Cl)cc2)N(c2cc(Cl)cn(C)c2=O)C3=O)c(OC)n1,,"human patients, plasma","oral, 100 mg, 0-24 h, high-dose arm, cycle 2 day 1",,AUC(0-t) geometric mean,11700 ng·h/mL
O=C(O)CSc1nnc(Br)n1-c1ccc(C2CC2)c2ccccc12,,"KM mouse, chronic hyperuricaemia model","dose not given, day 6",,body weight,28.5 g and 23.7 g and 30.8 g and 28 g and 29.5 g and 23.6 g
CC(C)(C(=O)N1CCOc2c(C#N)cncc2C1)C(F)F,refers to: eye disorders,human,"oral, 20 mg twice daily, 14 days, multiple ascending dose",,subjects with adverse event,0%
CNCCOC12CC3(C)CC(C)(CC(Cn4ncc(-c5ccc(N6CCc7cccc(C(=O)Nc8nc9ccccc9s8)c7C6)nc5C(=O)O)c4C)(C3)C1)C2,,"beagle dog, male, anaesthetised","intravenous bolus, 0.03 mg/kg, 210 min",baseline: baseline,mean arterial pressure change,-33%
C[Si](C)(C)O[Si](C)(C)C,,1-octanol/air,concentration not given,,enthalpy of phase change,-6.38 kcal/mol
O=S(=O)(NCc1ccccn1)c1cc(Cl)c(Cl)cc1Cl,,octanol/buffer,pH 7.4,,logD,3.02
C[C@@H](O)CCOC(=O)C[C@@H](C)O,,human,"oral drink, dose not given, 180 min post dose, mean",,diastolic blood pressure,67 mmHg
COc1cc(C(=O)N2CCC3(CC2)CC(=O)c2c(cnn2C(C)C)C3)cc(-c2ccc(C(=O)O)cc2)n1,direct measurement,"human, fasting serum","40 mg once daily, day 13, adjusted geometric mean",,LDL cholesterol change from baseline,1.8%
C[C@@H]1COCCN1c1cc(C2([S@](C)(=N)=O)CC2)nc(-c2cc[nH]c3nccc2-3)n1,,female BALB/c mice,"dose not given, 48 h, together with: total body irradiation 6 Gy",baseline: irradiation alone,lymphocyte count,no effect
CCOc1c([C@H](C)n2nc(C)c3c(N)ncnc32)cc(Cl)c(F)c1[C@@H]1CNC(=O)C1,refers to: QRS ≤100 ms,previously treated B-cell malignancy,"oral, 15 mg once daily, baseline below thresholds",,ECG observations,100%
C[C@@]1(C2CCCCC2)COC[C@@H](c2ccc(F)cc2Cl)N1,"shake-flask, 1-octanol/buffer",,pH 7.4,,logD,> 4.7
Cc1cc(C)c(CNC(=O)c2cc(Cl)c3c(c2C)O[C@@](C)([C@H]2CC[C@H](N(C)C)CC2)O3)c(=O)[nH]1,,human relapsed/refractory NHL,"oral, 200 mg once daily, onset after cycle 1 day 1",,AST increased grade ≥3,4.2%
Cc1ccc([C@@H]2O[C@H](CO)[C@@H](O)[C@H](O)[C@H]2O)cc1Cc1ccc(-c2ccc(F)cc2)s1,,Japanese type 2 diabetes patients,"100 mg, day 4, 24 h urine collection",baseline: baseline,urinary potassium excretion change,0.826 mEq
Fc1ccc([C@@H]2COC[C@H](c3ccc(-c4ccccc4)cc3)N2)cc1,"shake-flask, 1-octanol/buffer",,pH 7.4,,logD,> 4.7
Cc1ccc(C)c(OCCCC(C)(C)C(=O)O)c1,,"human, plasma","oral, dose not given, day 11 predose, median",,trough plasma concentration,1490 ng/mL
CCN1CCN(Cc2ccc(NC(=O)c3ccc(C)c(NC(=O)c4cncc(-c5cccs5)c4)c3)cc2C(F)(F)F)CC1,,"C57BL/6 mouse, plasma","intraperitoneal, 10 mg/kg, 24 h, single dose",,plasma concentration,not detected
[O]=[Co].[O]=[Co][O][Co]=[O],,"rat, male, urine, 24-h collection","oral gavage, single, 300 mg/kg (220 mg Co/kg), day 2, vehicle 0.5% HPMC",,cobalt concentration,379 µg/L
Fc1ccc([C@@H]2COC[C@H](c3cc(Cl)cc(Cl)c3)N2)cc1,"shake-flask, 1-octanol/buffer",,pH 7.4,,logD,> 4.7
Nc1ncnc2c1ncn2[C@H]1C[C@@H]2OP(=O)(O)OC[C@H]3O[C@@H](n4cnc5c(N)ncnc54)C[C@@H]3OP(=O)(O)OC[C@H]2O1,,"non-tumor-bearing mice, blood","intravenous, 1 mg/kg, toxicity study",,lymphocyte percentage,79.4 ± 4.69%
O=C(O)CN1CCCN2CCN(CC(=O)O)CCCN(CC1)Cc1cccc(n1)C2,,64Cu complex,"24 h, pH 7.4, 37 °C, together with: DOTA excess",,intact complex,95%
OCc1nc2ccc(NCc3ccc(C(F)(F)F)cc3)cc2[nH]1,,"Balb/c mouse, male, heart","intravenous, 1 mg/kg, 6 h",,tissue concentration,17.8 ± 8.4 ng/g
Clc1ccc(Nc2ncnc3ccc(-c4cccc(N5CCOCC5)c4)cc23)cc1,,human liver microsomes,,,CLint,20 µL/min/mg
CNC(=O)c1ccc(-c2cnc3ncc(Cc4ccc5ncccc5c4)n3n2)cc1F,,human mild hepatic impairment,"oral, 200 mg single dose, adjusted geometric mean",,unbound Cmax,38.8 ng/mL
CN1CCN(C(=O)[C@H](CCCN[C@@H]2C[C@H]2c2ccc(F)cc2)NC(=O)c2ccc(-n3ccnn3)cc2)CC1,,C57BL/6 mice,"oral, 40 to 60 mg/kg/day, 7 days",,lymphocyte count,no effect
NC/C(=C\F)COc1cccc(Cn2c(=S)[nH]c(=O)c3[nH]cnc32)c1,,"C57BL/6J mice, kidney","oral, 15 mg/kg single, 2 h",,tissue concentration,624 ng/mL
